Results pooled from the literature.
Numbered parts are unrelated; each lists some results of a single study.

Study 1
Target: Phosphate system positive regulatory protein PHO4, full length, GST-tagged (PHO4, Saccharomyces cerevisiae, UniProt P07270, residues 1-312)
Method: competition protein-binding microarray
Form: double-stranded DNA, one strand shown
Matrix: in vitro
Concentration: 2 µM
Setting: whole 60-bp probe, lowest competitor level
Added: Cbf1 competitor, 0.05 µM
Direction: higher = stronger binding
Endpoint: fluorescence intensity
Constant ends, left off below: … GTCTTGATTCGCTTGACGCTGCTG
Residues (chain): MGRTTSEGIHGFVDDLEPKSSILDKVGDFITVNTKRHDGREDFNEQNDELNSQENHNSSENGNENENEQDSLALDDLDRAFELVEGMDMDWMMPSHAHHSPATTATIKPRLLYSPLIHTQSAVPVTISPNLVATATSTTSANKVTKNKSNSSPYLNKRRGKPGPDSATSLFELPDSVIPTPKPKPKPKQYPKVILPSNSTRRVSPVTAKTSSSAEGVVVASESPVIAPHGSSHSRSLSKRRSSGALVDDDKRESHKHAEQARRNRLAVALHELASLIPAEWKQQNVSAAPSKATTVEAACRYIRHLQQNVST
Strand = CGATTTTTGCCTCACCACGTTCTGCCCATTCTTCTC; value = 13300 a.u.
Strand = CCACATCTGTCTCTCAATGGTCAAATACCGTTTTAA; value = 4380 a.u.
Strand = CCTCACCATTCGGGGCAGGTGACGAAGCAAGAGCGA; value = 4230 a.u.
Strand = AAACCATGGGACTGTCACACTATCCTTTCCAAGCCC; value = 4500 a.u.
Strand = GTCTTGTCTCATTTCCACGTGTTTTTCCCCACTTCA; value = 14500 a.u.
Strand = CATACCCAACCTTGGACAGTGGGTGAAGATATTTGT; value = 3380 a.u.
Strand = AGGCCTATCTTCTCACGCCTGAGGAACCTGCCAAGA; value = 4120 a.u.
Strand = CCGGTGTTGCCCCATTCCGTGGGTATATCAGAGAGC; value = 5510 a.u.
Strand = CGGGGTTAAGTTTGTCACACGACTTGCTTGCAGCAG; value = 5330 a.u.
Strand = GATGTTTCCGTCACCGACATGACAATAACCACTTGA; value = 3740 a.u.
Strand = CCTTATGTTATATGGCAGGTGAAATTGTGGGGCTAC; value = 4640 a.u.
Strand = TGCCAAGCACTTTTCATCATGACAATTAGGGTAGAT; value = 3950 a.u.
Strand = TGTTCAAGTGCTTTTCACGTGTAGGATTACTTAACC; value = 11500 a.u.
Strand = TTTCTCATATACCGTCACGTGGCCGGATGTTTATCG; value = 16400 a.u.
Strand = TGCGCAACAACTTGATCGGTGGGTGTATGTCTAGAA; value = 4360 a.u.
Strand = GTCTTGTCTCATTGTCACGGAACTTTCCCCACTTCA; value = 4470 a.u.
Strand = GATTGCATACCCGCACTCGTGCTTTCATGCTAATTG; value = 10400 a.u.

Study 2
Target: Sal-like protein 4, full length isoform A (SALL4, Homo sapiens, UniProt Q9UJQ4, residues 1-1053)
UniProt Q9UJQ4, sequence (whole entry, looked up): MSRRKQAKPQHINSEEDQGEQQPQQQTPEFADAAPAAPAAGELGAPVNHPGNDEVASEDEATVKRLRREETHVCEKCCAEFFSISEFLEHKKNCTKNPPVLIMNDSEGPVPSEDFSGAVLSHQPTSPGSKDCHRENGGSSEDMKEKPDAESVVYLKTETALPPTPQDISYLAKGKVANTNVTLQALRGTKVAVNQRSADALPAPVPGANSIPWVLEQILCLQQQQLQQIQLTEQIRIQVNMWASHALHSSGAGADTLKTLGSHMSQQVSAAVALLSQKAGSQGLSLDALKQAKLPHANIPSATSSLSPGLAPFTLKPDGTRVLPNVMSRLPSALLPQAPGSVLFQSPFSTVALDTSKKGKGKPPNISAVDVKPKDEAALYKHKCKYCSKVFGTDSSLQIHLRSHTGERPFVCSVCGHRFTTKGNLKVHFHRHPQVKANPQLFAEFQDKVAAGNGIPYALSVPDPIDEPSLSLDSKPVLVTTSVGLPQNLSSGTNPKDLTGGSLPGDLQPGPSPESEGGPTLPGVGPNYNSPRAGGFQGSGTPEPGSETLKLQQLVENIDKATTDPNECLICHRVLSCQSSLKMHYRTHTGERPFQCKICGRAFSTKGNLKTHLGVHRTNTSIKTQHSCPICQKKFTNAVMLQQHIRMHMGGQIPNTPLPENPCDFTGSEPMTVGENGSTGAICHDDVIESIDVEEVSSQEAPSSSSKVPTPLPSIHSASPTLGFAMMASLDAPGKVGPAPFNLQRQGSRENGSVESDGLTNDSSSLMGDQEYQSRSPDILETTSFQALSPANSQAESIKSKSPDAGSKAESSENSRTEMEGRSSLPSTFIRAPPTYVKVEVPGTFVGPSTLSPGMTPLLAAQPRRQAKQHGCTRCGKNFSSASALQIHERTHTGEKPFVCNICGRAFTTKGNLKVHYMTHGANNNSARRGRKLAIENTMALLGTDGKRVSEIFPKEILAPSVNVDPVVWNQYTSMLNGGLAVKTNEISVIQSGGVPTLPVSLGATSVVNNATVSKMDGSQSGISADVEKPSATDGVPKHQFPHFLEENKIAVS
Method: universal PBM
Form: double-stranded DNA, one strand shown
Matrix: in vitro
Concentration: 600 nM
Setting: 8-mer, flanks averaged, mean of replicates
Direction: higher = stronger binding
Endpoint: E-score
Strand = GAGCTGGA; value = -0.271
Strand = AGCGAGCT; value = -0.132
Strand = TACACTCA; value = 0.205
Strand = CCGAACGG; value = -0.338
Strand = AAAGTCCA; value = -0.0648
Strand = GCGTGCAA; value = -0.185
Strand = GATCCAGA; value = -0.0323
Strand = GGCCCAGA; value = -0.303
Strand = ATATCCCG; value = -0.0148
Strand = AACTCCCA; value = -0.0544
Strand = GCGAATCC; value = -0.219
Strand = AGTACAAC; value = 0.113
Strand = CGGTACAC; value = -0.248
Strand = GATATTCC; value = 0.187
Strand = AAGCAAAT; value = 0.214
Strand = GTTTCCCA; value = -0.122
Strand = TACATTAA; value = 0.296
Strand = GCTTAAAC; value = 0.0638
Strand = AACTAGTT; value = 0.227
Strand = AAGCAGCT; value = -0.0887
Strand = AGCCTGCA; value = -0.0951
Strand = CAGATAAA; value = 0.213
Strand = ATCAAGAA; value = 0.306
Strand = ACCGCTGC; value = -0.379
Strand = AGGGACGC; value = -0.21

Study 3
Target: Histone acetyltransferase KAT6A, both winged helices, GST fusion (KAT6A, Homo sapiens, UniProt Q92794, residues 1-181)
Method: protein binding microarray
Form: double-stranded DNA, one strand shown
Matrix: in vitro
Concentration: not given
Setting: 8-mer, flanks averaged, mean of 2 arrays, mostly near background
Relative to: not given
Direction: higher = stronger binding
Endpoint: E-score
Residues (chain): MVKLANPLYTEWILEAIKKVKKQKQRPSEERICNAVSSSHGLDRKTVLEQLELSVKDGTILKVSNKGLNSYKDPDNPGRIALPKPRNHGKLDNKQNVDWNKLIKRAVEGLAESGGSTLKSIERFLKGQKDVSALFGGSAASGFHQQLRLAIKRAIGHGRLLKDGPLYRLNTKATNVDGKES
Strand = CGCCTTAC; value = 0.0753
Strand = CCCTGCGC; value = 0.194
Strand = TACTGACA; value = -0.134
Strand = ACTCAGTA; value = -0.0216
Strand = CAAATCCA; value = -0.229
Strand = AAGGGGTG; value = -0.124
Strand = GGCAGCTA; value = -0.0932
Strand = AGAAGAGA; value = -0.119
Strand = AAATCTGG; value = -0.0069
Strand = AATGAGTA; value = 0.0146
Strand = CCTGGCCC; value = -0.169
Strand = CAAATTAG; value = -0.048
Strand = CGCCGGCC; value = 0.358
Strand = CTAGCCAG; value = -0.28
Strand = CCTCTCGA; value = -0.108
Strand = CCGGCGAG; value = 0.203
Strand = CGGAGTCC; value = 0.0218
Strand = CGTGGCCA; value = -0.0314
Strand = ACTGCGCG; value = 0.321
Strand = GTCTCCGA; value = 0.118
Strand = CCCCGGCA; value = 0.147
Strand = CAAGCAGG; value = -0.0862

Study 4
Target: Interferon regulatory factor 7, full length, phosphomimetic (IRF7, Homo sapiens, UniProt Q92985, residues 1-503, S471D/S472D/S475D/S476D/S477D/S483D/S484D/S487D)
Method: protein-binding microarray
Form: double-stranded DNA, one strand shown
Matrix: in vitro
Concentration: 2200 nM top
Setting: 60-bp whole probe
Added: salmon DNA 0.4 mg/ml
Relative to: random background probes
Direction: higher = stronger binding
Endpoint: fitted relative affinity
Constant ends, left off below: GCCTAGCAC … GTCTTGATTCGCTTGACGCTGCTG
Target sequence (chain): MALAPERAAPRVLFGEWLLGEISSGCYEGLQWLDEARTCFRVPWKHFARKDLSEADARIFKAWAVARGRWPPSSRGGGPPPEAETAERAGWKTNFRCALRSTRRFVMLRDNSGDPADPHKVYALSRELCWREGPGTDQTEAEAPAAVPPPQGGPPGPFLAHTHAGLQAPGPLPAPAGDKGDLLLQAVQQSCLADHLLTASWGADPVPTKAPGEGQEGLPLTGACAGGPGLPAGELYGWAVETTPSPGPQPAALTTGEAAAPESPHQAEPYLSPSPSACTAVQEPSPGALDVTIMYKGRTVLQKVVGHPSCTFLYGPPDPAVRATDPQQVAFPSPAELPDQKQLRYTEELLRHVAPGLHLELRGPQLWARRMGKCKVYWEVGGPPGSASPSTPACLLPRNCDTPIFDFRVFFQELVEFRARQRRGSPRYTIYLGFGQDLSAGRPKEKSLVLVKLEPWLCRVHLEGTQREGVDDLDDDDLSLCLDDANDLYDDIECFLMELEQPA
Strand = TCAATTTCCATTTTCTAACTGTGCTAG; value = 4.76 z-score
Strand = GACGGTTTCGGCTATCGGGACGTGCTA; value = 3.35 z-score
Strand = TCACCTCAGGGTTTCAGACTGTGCTAG; value = 0.349 z-score
Strand = TGAGGTATCGGACTGGGTTAGTGCTAG; value = -0.258 z-score
Strand = GACGGTTGCCTTATCCTGACGTGCTAG; value = 0.598 z-score
Strand = GACGCTCTCAGACTGGAGACGTGCTAG; value = -0.00745 z-score
Strand = TTAGATATCAGTCTCGTTTAGTGCTAG; value = 0.734 z-score
Strand = GGTGGGGTGCAGCAGGGCCAGTGCTAG; value = -1.37 z-score
Strand = TTAGGTTTCGGGTTTCGGTTGGTGCTA; value = 12 z-score
Strand = TTAGGTTTCGGTATCTGTTAGTGCTAG; value = 7.06 z-score
Strand = GACGAACTGAGTATGGAGACGTGCTAG; value = -0.238 z-score
Strand = TTAGGTTTCGGGTTTCGGTTTGTGCTA; value = 14.6 z-score
Strand = GAAGCCAGCTCTTTCGTTACGTGCTAG; value = 2.26 z-score
Strand = GACGATATCCGTATCGAGACGTGCTAG; value = 1.28 z-score
Strand = GACGGTGCCGGTTTCGGGACGTGCTAG; value = 2.26 z-score
Strand = TCACATGTGCTGTCTCAGACTGTGCTA; value = 0.622 z-score
Strand = TCAAGAATAATTTTTTAGACTGTGCTA; value = -1.03 z-score
Strand = TTAGAACTGGGTTTCGATTAGTGCTAG; value = 2.84 z-score
Strand = TCAGAATTTACTTTCTACGTGTGCTAG; value = 1.48 z-score

For quick reference, copied from above (study 4):
Strand = TGAGGTATCGGACTGGGTTAGTGCTAG; value = -0.258 z-score
Strand = TCACATGTGCTGTCTCAGACTGTGCTA; value = 0.622 z-score
Strand = GACGATATCCGTATCGAGACGTGCTAG; value = 1.28 z-score
Strand = GACGGTGCCGGTTTCGGGACGTGCTAG; value = 2.26 z-score
Strand = TCAGAATTTACTTTCTACGTGTGCTAG; value = 1.48 z-score
Strand = TTAGATATCAGTCTCGTTTAGTGCTAG; value = 0.734 z-score
Strand = TTAGAACTGGGTTTCGATTAGTGCTAG; value = 2.84 z-score
Strand = GACGAACTGAGTATGGAGACGTGCTAG; value = -0.238 z-score
Strand = TCAAGAATAATTTTTTAGACTGTGCTA; value = -1.03 z-score
Strand = GACGCTCTCAGACTGGAGACGTGCTAG; value = -0.00745 z-score
Strand = TCACCTCAGGGTTTCAGACTGTGCTAG; value = 0.349 z-score
Strand = GGTGGGGTGCAGCAGGGCCAGTGCTAG; value = -1.37 z-score
Strand = TCAATTTCCATTTTCTAACTGTGCTAG; value = 4.76 z-score
Strand = TTAGGTTTCGGTATCTGTTAGTGCTAG; value = 7.06 z-score
